Measured values collected from several papers.
Each line is one published result; not all experiments were run side by side. ± gives the spread as reported.
Cell line: Jurkat

NCCCC[C@H](NC(=O)[C@@H](N)CCCCN)C(=O)NCC(=O)NCC(=O)NCCCCCCCCNC(=O)c1ccc(-c2ccccn2)cc1 — EC50 (cytotoxicity, MTT; 24 h, 37 °C, 10% FBS): 2.4 µM
CC=C(C)C(=O)OC1C(O)C2OC(COC(=O)CCCCCCCCCC(CCCCC)OC3OC(C)C(OC(C)=O)C(O)C3O2)C1OC(=O)C=Cc1ccccc1 (centres unmarked) — selectivity index (reference: IC50 MCF-10A over IC50 Jurkat): 3.16
CN(C)C1=[S+][Au-]2([S]1)[c]1ccccc1P(c1ccccc1)(c1ccccc1)=[N+]2c1ccccc1.F[P-](F)(F)(F)(F)F (centres unmarked) — cell death (annexin V flow cytometry; 0.5 µM, 24 h): ~100%
CCCCCCCCCCCCCC(=O)NCC(=O)N[C@@H](CCCNC(=N)N)C(=O)N[C@@H](Cc1c[nH]c2ccccc12)C(=O)N[C@@H](CCCCN)C(=O)N[C@H](C(=O)N[C@@H](Cc1ccccc1)C(=O)N[C@@H](CCCCN)C(=O)N[C@@H](CCCCN)C(=O)N[C@H](C(=O)N[C@@H](CCC(=O)O)C(=O)N[C@@H](CCCCN)C(=O)N[C@H](C(=O)NCC(=O)N[C@@H](CCC(N)=O)C(=O)N[C@@H](CC(N)=O)C(=O)N[C@H](C(=O)N[C@@H](CCCNC(=N)N)C(=O)N[C@@H](CC(=O)O)C(=O)NCC(=O)N[C@H](C(=O)N[C@H](C(=O)N[C@@H](CCCCN)C(=O)N[C@@H](C)C(=O)NCC(=O)N1CCC[C@H]1C(=O)N[C@@H](C)C(=O)N[C@H](C(=O)N[C@@H](C)C(=O)N[C@H](C(=O)N[C@H](C(=O)NCC(=O)N[C@@H](CCC(N)=O)C(=O)N[C@@H](C)C(=O)N[C@@H](C)C(=O)N[C@H](C(=O)N[C@H](C(N)=O)[C@@H](C)CC)[C@@H](C)O)C(C)C)C(C)C)C(C)C)C(C)C)[C@@H](C)CC)[C@@H](C)CC)C(C)C)[C@@H](C)CC)[C@@H](C)CC — cleaved over total caspase ratio (western blot, measured: caspase 3; 3 or 6 µM, 16 h): increased
C1=CCCC=CCC1.C1=CCCC=CCC1.[Cl][Hg-]([Cl])[Cl].[Cl][Hg-]([Cl])[Cl].[Pt+][c]1ccccc1P(=Nc1ccccc1)(c1ccccc1)c1ccccc1.[Pt+][c]1ccccc1P(=Nc1ccccc1)(c1ccccc1)c1ccccc1 — IC50 (cell viability, MTT; 24 h): 0.43 ± 0.06 µM
CC(C)C[C@H](NC(=O)[C@H](CO)NC(=O)[C@H](Cc1c[nH]c2ccccc12)NC(=O)[C@H](Cc1ccccc1)NC(=O)[C@H](Cc1ccccc1)NC(=O)[C@H](CCC(N)=O)NC(=O)[C@@H]1CCCN1C(=O)[C@H](CCCNC(=N)N)NC(=O)[C@H](CCCNC(=N)N)NC(=O)[C@H](CCCNC(=N)N)NC(=O)[C@H](CCC(N)=O)NC(=O)[C@H](CCCNC(=N)N)NC(=O)[C@H](CCCNC(=N)N)NC(=O)[C@H](CCCCN)NC(=O)[C@H](CCCCN)NC(=O)[C@H](CCCNC(=N)N)NC(=O)CNC(=O)[C@@H](N)Cc1ccc(O)cc1)C(=O)N[C@@H](CS)C(=O)N[C@H](C(=O)N[C@@H](C)C(=O)O)[C@@H](C)O — trypan blue-negative cells (20 µM, 15 min): 21.8%
C1=CCCC=CCC1.C1=CCCC=CCC1.O=C(N=P12CN3CN(CN(C3)C1)C2)c1cccc[c]1[Pt+].O=C(N=P12CN3CN(CN(C3)C1)C2)c1cccc[c]1[Pt+].[Cl][Hg-]([Cl])[Cl].[Cl][Hg-]([Cl])[Cl].[Cl][Hg][Cl].[Cl][Hg][Cl] — dead cells (annexin V flow cytometry; 10 µM, 24 h): ~50%
O=C(N=P12CN3CN(CN(C3)C1)C2)c1cccc[c]1[Pd]([Br])([PH]12CN3CN(CN(C3)C1)C2)[PH]12CN3CN(CN(C3)C1)C2 — IC50 (cytotoxicity, MTT; 24 h, 1% DMSO): 374 ± 40 µM

Excerpt of the above:
CCCCCCCCCCCCCC(=O)NCC(=O)N[C@@H](CCCNC(=N)N)C(=O)N[C@@H](Cc1c[nH]c2ccccc12)C(=O)N[C@@H](CCCCN)C(=O)N[C@H](C(=O)N[C@@H](Cc1ccccc1)C(=O)N[C@@H](CCCCN)C(=O)N[C@@H](CCCCN)C(=O)N[C@H](C(=O)N[C@@H](CCC(=O)O)C(=O)N[C@@H](CCCCN)C(=O)N[C@H](C(=O)NCC(=O)N[C@@H](CCC(N)=O)C(=O)N[C@@H](CC(N)=O)C(=O)N[C@H](C(=O)N[C@@H](CCCNC(=N)N)C(=O)N[C@@H](CC(=O)O)C(=O)NCC(=O)N[C@H](C(=O)N[C@H](C(=O)N[C@@H](CCCCN)C(=O)N[C@@H](C)C(=O)NCC(=O)N1CCC[C@H]1C(=O)N[C@@H](C)C(=O)N[C@H](C(=O)N[C@@H](C)C(=O)N[C@H](C(=O)N[C@H](C(=O)NCC(=O)N[C@@H](CCC(N)=O)C(=O)N[C@@H](C)C(=O)N[C@@H](C)C(=O)N[C@H](C(=O)N[C@H](C(N)=O)[C@@H](C)CC)[C@@H](C)O)C(C)C)C(C)C)C(C)C)C(C)C)[C@@H](C)CC)[C@@H](C)CC)C(C)C)[C@@H](C)CC)[C@@H](C)CC — cleaved over total caspase ratio (western blot, measured: caspase 3; 3 or 6 µM, 16 h): increased
